Results from different studies.
Compare with care: the assays were run in different laboratories. ± marks the error that the study gave.
TDP1: Tyrosyl-DNA phosphodiesterase 1 (TDP1, Homo sapiens, UniProt Q9NUW8)
UniProt Q9NUW8, sequence (whole entry, looked up): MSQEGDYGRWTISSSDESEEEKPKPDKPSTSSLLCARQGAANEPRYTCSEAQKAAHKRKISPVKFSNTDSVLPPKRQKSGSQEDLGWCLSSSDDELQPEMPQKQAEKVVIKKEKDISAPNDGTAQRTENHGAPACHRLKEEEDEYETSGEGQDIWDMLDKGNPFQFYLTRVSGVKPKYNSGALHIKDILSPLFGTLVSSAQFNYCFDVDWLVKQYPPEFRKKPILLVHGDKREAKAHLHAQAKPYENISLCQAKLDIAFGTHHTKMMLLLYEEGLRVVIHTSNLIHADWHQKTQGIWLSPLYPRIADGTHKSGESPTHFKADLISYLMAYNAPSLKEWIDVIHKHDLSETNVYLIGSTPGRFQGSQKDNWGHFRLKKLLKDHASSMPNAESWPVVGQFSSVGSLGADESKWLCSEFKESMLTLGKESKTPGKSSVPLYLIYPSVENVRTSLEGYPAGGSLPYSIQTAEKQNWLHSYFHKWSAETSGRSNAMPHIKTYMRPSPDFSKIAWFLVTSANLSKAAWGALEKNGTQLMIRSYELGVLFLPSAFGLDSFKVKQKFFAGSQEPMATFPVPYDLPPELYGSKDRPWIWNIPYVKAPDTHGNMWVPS

Structure (SMILES) | tested on | assay | system | setting | how to read | measurement | value
C=CC(=O)Nc1cccc(Cn2ncc3cnc(Nc4cnn(CCOC)c4)nc32)c1 | human p38-gamma | KINOMEscan | – | 100 nM | baseline: control | binding | 86%
COc1cc(C=NOCc2ccc(-c3nc4cc(-c5ccccc5)ccn4c3Nc3ccc(C(=O)O)cc3)cc2)c(O)c(CN2CCOCC2)c1 | TDP1 | enzyme activity, inhibitor | – | 100 µM, unpurified compound | – | inhibition | 32.7%
CCN(CC)CC(=O)Nc1cccc(-n2cc(-c3ccc4ccc(-c5cn(-c6cccc(NC(=O)CN(CC)CC)c6)nn5)cc4c3)nn2)c1 | RCC4 | PCR angiogenesis array, item: EPHB4 | – | 5 x IC50, 6 h, normoxia | baseline: untreated | fold regulation | -1.06
COc1cc(O)ccc1CCC(c1ccc(O)cc1)c1cc2c(c(C)c1O)OC(c1ccc(O)cc1)CC2 (mixture of isomers) | – | item: PGF2α | human whole blood | 0.3 µM, together with: Escherichia coli | – | amount | 596 ± 279 pg/mL blood
CNS(=O)(=O)Nc1nccc(Cc2c(C)c3ccc(Oc4ncccc4F)cc3oc2=O)c1F | 143B | cell viability | – | 7 days | – | IC50 | 0.0717 µM
CC=C(C)C(=O)OC1CC2C(C=C(C)C3C(OC(C)=O)CC(=O)C13C)OC(=O)C2C (stereo not shown) | Helicobacter pylori | microbial growth, broth dilution | – | 125 µg/mL | – | inhibition | 0%
C=CC(=O)N1[C@@H](c2ccc3c(c2)OCO3)c2[nH]c3ccccc3c2C[C@H]1C(=O)N1CCN(C)CC1 | human cyclin E1 N112C-3xFLAG:CDK2 | co-IP with TMT proteomics, item: DHX9 | – | concentration not given, Q08211 | baseline: wild type DMSO | relative co-enrichment | 125%
c1ccc(-c2n[nH]cc2-c2ccnc3ccccc23)nc1 | NPR1 (Candida albicans) | kinase binding, MIB/MS competition | Candida albicans lysate | 10 µM | baseline: DMSO | log2 fold change | -0.08
CN1CCCNC(=O)c2cccc(c2)C(=O)NCCCN(C)CCCNc2cccc3c2C(=O)c2cccc(c2C3=O)NCCC1 | SAS | RNA-Seq, item: LMAN2L mRNA | – | 1 µM, 6 h | baseline: untreated cells | log2 fold change | 0.984
COC1CN([C@H]2CC[C@H]([C@@]3(C)Oc4c(Cl)cc(C(=O)NCc5c(SC)cc(C)[nH]c5=O)c(C)c4O3)CC2)C1 | – | RNA-seq, item: RTN2 mouse homolog | mouse, HT-1376 xenograft, whole blood | dose not given | baseline: vehicle | log2 fold change | 2.53
CO[C@@H]1OC[C@@H](O)[C@H](O)[C@H]1O | Helicobacter pylori | microbial growth, broth dilution | – | 3.9 µg/mL | – | inhibition | 0%
CS(=O)(=O)c1ccc(C=NOCc2ccc3nc(-c4ccccc4)c(Nc4ccc(C(=O)O)cc4)n3c2)c(Cl)c1 (mixture of isomers) | TDP1 | enzyme activity, inhibitor | – | 100 µM, unpurified compound | – | inhibition | 49%
Cn1ncc2cc(-c3cncc(Cl)c3N3CCC4(CCNC4=O)CC3)ccc21 | LS174T | gene expression, microarray, item: PTPRZ1 mRNA | – | concentration not given, 4 h | baseline: untreated cells | log2 fold change | 1.13
Nc1ncc(-c2cc(-c3cnn(CC(F)(F)F)c3)ncc2F)nc1C(=O)NC1CNCC(F)C1 (stereo not shown) | HPK1 | KINOMEscan | – | 1 µM | baseline: DMSO control | remaining binding | 31%
Cc1ncsc1-c1ccc(C(C)NC(=O)C2CC(O)CN2C(=O)C(NC(=O)CCCCCCCCCCN2CCCC(Nc3ncc(Cl)c(Nc4ccccc4S(=O)(=O)C(C)C)n3)C2)C(C)(C)C)cc1 (stereo not shown) | 22Rv1 | RNA-seq, item: TBC1D31 mRNA | – | concentration not given | baseline: DMSO | log2 fold change | -1.38
CC(C)c1ccc(N(C)c2ccc3c(c2)OCC[C@H]3CNc2cnccc2C(=O)O)cc1 | KALS-1 | cell growth or viability, ATP luminescence | – | 7 days | – | IC50 | ≥ 10 µM

Repeated from above:
Structure (SMILES) | tested on | assay | system | setting | how to read | measurement | value
CO[C@@H]1OC[C@@H](O)[C@H](O)[C@H]1O | Helicobacter pylori | microbial growth, broth dilution | – | 3.9 µg/mL | – | inhibition | 0%
